Experimental data gathered from unrelated publications.
Compare with care: the assays were run in different laboratories. Several values in a cell are separate wells, animals, samples, runs or records. Numbers after ± are the reported error.

CC(=O)N[C@H](C(=O)N[C@@H](CCCNC(=N)N)C(=O)N[C@@H](CCCCN)C(=O)N[C@@H](CCCNC(=N)N)C(=O)N[C@H](C(=O)N[C@@]1(C)CCCC=CCCC[C@@](C)(C(=O)N[C@@H](CCC(N)=O)C(=O)N[C@@H](CCC(=O)O)C(=O)N[C@@H](CCCNC(=N)N)C(=O)N[C@@H](CCC(=O)O)C(=O)N[C@@H](CC(C)C)C(=O)N[C@H](C(=O)N[C@@H](CCC(=O)O)C(N)=O)C(C)C)NC(=O)[C@H](CC(C)C)NC(=O)[C@H](CCCNC(=N)N)NC(=O)[C@H](CCCNC(=N)N)NC1=O)[C@@H](C)O)C(C)C
IC50 (SK-N-MC; cell viability; 18 h, serum-free): > 10 µM

O=C(c1cc(Cc2n[nH]c(=O)c3ccccc23)ccc1F)N1CC(CNC2CC2)C1
IC50 (MX1): 0.0144 µM

C[C@@H]1COCCN1c1nc(NCc2cccnc2C(F)(F)F)c2cccnc2n1
IC50 (cardiomyocytes; calcium signalling; in vitro toxicology): > 20 µM

CC[C@H](C)[C@H](NC(=O)[C@H](CCCCN)NC(=O)[C@@H](NC(=O)[C@H](CCC(N)=O)NC(=O)[C@@H](N)CCCNC(=N)N)[C@@H](C)CC)C(=O)N[C@@H](Cc1c[nH]c2ccccc12)C(=O)N[C@@H](Cc1ccccc1)C(=O)N[C@@H](CCC(N)=O)C(=O)N[C@@H](CC(N)=O)C(=O)N[C@@H](CCCNC(=N)N)C(=O)N[C@@H](CCCNC(=N)N)C(=O)N[C@@H](CCSC)C(=O)N[C@@H](CCCCN)C(=O)N[C@@H](Cc1c[nH]c2ccccc12)C(=O)N[C@@H](CCCCN)C(=O)N[C@@H](CCCCN)C(=O)N[C@@H](CC(C)C)C(=O)N[C@@H](CCC(=O)O)C(=O)N[C@H](C(=O)N[C@@H](C)C(=O)N[C@H](C(=O)N[C@@H](CC(N)=O)C(=O)N[C@@H](CC(C)C)C(=O)N[C@@H](C)C(=O)N[C@@H](Cc1c[nH]c2ccccc12)C(=O)O)C(C)C)[C@@H](C)O
IC50 (CLL patient PBMCs; cell death, PI staining flow cytometry; 90 min): 3.5 µM

Cc1sc2c(c1C)C(c1ccc(-c3cccc(NC(=O)c4cnn5cccnc45)c3)cc1)=N[C@@H](CC(N)=O)c1nnc(C)n1-2
IC50 (KG-1; cell growth or viability, ATP luminescence; 72 h): 0.0553 µM

CC(C)C12OC1C1OC13C1(C)CCC4=C(COC4=O)C1CC1OC13C2OC(=O)CCC(=O)OC1OC(CO)C(O)C(O)C1O (stereo not drawn)
IC50 (DU-145; cell growth or viability, XTT; 47 h): 0.4 µM

CC[C@H](C)[C@H](NC(=O)[C@H](C)NC(=O)[C@H](Cc1c[nH]cn1)NC(=O)[C@H](CC(C)C)NC(=O)CNC(=O)[C@H](Cc1ccccc1)NC(=O)CNC(=O)[C@H](Cc1ccc(O)cc1)NC(=O)CNC(=O)[C@H](CCCCN)NC(=O)[C@@H](NC(=O)[C@H](Cc1ccccc1)NC(=O)[C@@H](NC(=O)[C@H](CC(=O)O)NC(=O)[C@H](CCCNC(=N)N)NC(=O)[C@H](C)NC(=O)[C@H](CO)NC(=O)[C@H](CCCCN)NC(=O)CNC(=O)[C@H](CC(C)C)NC(=O)[C@H](CC(=O)O)NC(=O)[C@H](C)NC(=O)[C@H](Cc1ccc(O)cc1)NC(=O)[C@@H](NC(=O)[C@@H]1CCCN1C(=O)[C@@H]1CCCN1C(=O)[C@@H](NC(=O)[C@H](C)NC(=O)[C@@H](N)CCSC)C(C)C)[C@@H](C)O)C(C)C)[C@@H](C)O)C(=O)N[C@@H](Cc1ccc(O)cc1)C(=O)N1CCC[C@H]1C(=O)N[C@@H](CCCNC(=N)N)C(=O)N[C@@H](Cc1c[nH]cn1)C(=O)O
IC50 (CLL patient PBMCs; cell death, PI staining flow cytometry; 90 min): > 25 µM

Cc1cc(Nc2nc(C[C@@]3(C(=O)O)CCN(Cc4cccc(Cl)c4F)[C@H](C)C3)cc(C)c2F)[nH]n1
IC50 (Daoy; cell growth or viability, ATP luminescence; 5 days): 0.0246 µM

CC(C)C12OC1C1OC13C1(C)CCC4=C(COC4=O)C1CC1OC13C2OC(=O)CCCOC1OC(CO)C(O)C(O)C1O (stereo not drawn)
IC50 (CFPAC-1; cell growth or viability, XTT; 47 h): 0.47 µM

Cc1cc(Oc2nc(N3CC[C@@H](c4ccncc4)C3)ncc2F)[nH]n1
IC50 (DLD-1; cell proliferation; colon cancer): 31.6 µM

CC(=O)N[C@H](C(=O)N[C@@H](CCCNC(=N)N)C(=O)N[C@@H](CCCCN)C(=O)N[C@@H](CCCNC(=N)N)C(=O)NC(C)(C)C(=O)N[C@@H](CC(C)C)C(=O)N[C@@H](CCCNC(=N)N)C(=O)N[C@@H](CCCNC(=N)N)C(=O)N[C@@H](CC(C)C)C(=O)N[C@@H](CC(C)C)C(=O)N[C@@H](CCC(N)=O)C(=O)NC(C)(C)C(=O)N[C@@H](CCCNC(=N)N)C(=O)N[C@@H](CCC(=O)O)C(=O)N[C@@H](CC(C)C)C(=O)N[C@H](C(=O)N[C@@H](CCC(=O)O)C(N)=O)C(C)C)C(C)C
IC50 (H3255 (EGFR L858R); cell viability, ATP luminescence; 18 h): > 100 µM

CCOc1ccccc1-n1c(CN2CCN(C)CC2)nc2ccccc2c1=O
IC50 (PANC-1; cell growth or viability, ATP luminescence; 72 h): 1.7 µM

CC1CCC2C(C)C(OC(=O)CCC(=O)N3CCN(CC(=O)Nc4ccc([N+](=O)[O-])c(C(F)(F)F)c4)CC3)OC3OC4(C)CCC1C32OO4 (stereo not drawn)
IC50 (OVCAR-3; cell growth or viability, CCK-8): 0.56 µM

CCCCCCCC(=O)NCCCC[C@H](NC(=O)CCCCCCC)C(=O)N[C@@H](CCCCNC(=O)CCCCCCC)C(=O)NCC(=O)NCC(=O)NCC(=O)N[C@@H](CS)C(=O)N[C@@H](CCCNC(=N)N)C(=O)N[C@@H](CCCCN)C(=O)N1CCC[C@H]1C(=O)N[C@@H](CS)C(=O)N[C@@H](CCCNC(=N)N)C(=O)N[C@@H](CCCCN)C(=O)N1CCC[C@H]1C(=O)N[C@@H](CS)C(=O)N[C@@H](CCCNC(=N)N)C(=O)N[C@@H](CCCCN)C(=O)N1CCC[C@H]1C(=O)N[C@@H](CS)C(=O)N[C@@H](CCCNC(=N)N)C(=O)N[C@@H](CCCCN)C(=O)N1CCC[C@H]1C(N)=O
IC50 (human red blood cells; haemolysis; pH 7.4, 37 °C; relative to: Triton X-100): 414 µM

CCOc1ccccc1-n1c(CN2CCOCC2)nc2ccccc2c1=O
IC50 (PANC-1; cell growth or viability, ATP luminescence; 72 h): > 10 µM

CCC1(c2ccc(NC(=O)CCC(=O)OC3OC4OC5(C)CCC6C(C)CCC(C3C)C46OO5)cc2)CCC(=O)NC1=O (mixture of isomers)
IC50 (Hep3B; cell growth or viability, CCK-8): 1.01 µM

CCOc1cccc(Br)c1-n1c(CN2CCNCC2)nc2ccccc2c1=O
IC50 (PANC-1; cell growth or viability, ATP luminescence; 72 h): 2.2 µM

CC(=O)N[C@H](C(=O)N[C@@H](CCCNC(=N)N)C(=O)N[C@@H](CCCCN)C(=O)N[C@@H](CCCNC(=N)N)C(=O)N[C@]1(C)CCCCCCC=CCCC[C@@](C)(C(=O)N[C@@H](CCCNC(=N)N)C(=O)N[C@@H](CCC(=O)O)C(=O)N[C@@H](CC(C)C)C(=O)N[C@H](C(=O)N[C@@H](CCC(=O)O)C(N)=O)C(C)C)NC(=O)[C@H](CCC(N)=O)NC(=O)[C@H](CC(C)C)NC(=O)[C@H](CC(C)C)NC(=O)[C@H](CCCNC(=N)N)NC(=O)[C@H](CCCNC(=N)N)NC(=O)[C@H](CC(C)C)NC1=O)C(C)C
IC50 (H3255 (EGFR L858R); cell viability, ATP luminescence; 18 h): 1.91 ± 0.38 µM

CCOc1cccc(-n2c(CN3CCNCC3)nc3ccccc3c2=O)c1
IC50 (PANC-1; cell growth or viability, ATP luminescence; 72 h): > 10 µM

CC[C@H](C)[C@H](NC(=O)[C@H](Cc1c[nH]cn1)NC(=O)[C@H](CCCNC(=N)N)NC(=O)[C@H](CCCNC(=N)N)NC(=O)[C@H](CCCNC(=N)N)NC(=O)CNC(=O)[C@H](CCCNC(=N)N)NC(=O)[C@H](CCCNC(=N)N)NC(=O)[C@H](CCCNC(=N)N)NC(=O)[C@H](CCC(N)=O)NC(=O)[C@H](CCCNC(=N)N)NC(=O)[C@H](CCCNC(=N)N)NC(=O)[C@H](CCCCN)NC(=O)[C@H](CCCCN)NC(=O)[C@H](CCCNC(=N)N)NC(C)=O)C(=O)N[C@H](C(=O)N[C@@H](CCCNC(=N)N)C(=O)N[C@@H](CCCCN)C(=O)N[C@@H](CCCNC(=N)N)C(=O)N[C@H](C(=O)N[C@@H](CC(C)C)C(=O)N[C@@H](CCCNC(=N)N)C(=O)N[C@@H](CCCNC(=N)N)C(=O)N[C@@H](CC(C)C)C(=O)N[C@@H](CC(C)C)C(=O)N[C@@H](CCC(N)=O)C(=O)N[C@@H](CCC(=O)O)C(=O)N[C@@H](CCCNC(=N)N)C(N)=O)[C@@H](C)O)C(C)C
IC50 (SK-N-MC; cell viability; 18 h, serum-free): > 10 µM

Cc1ccc(C(C)C)cc1.F[P-](F)(F)(F)(F)F.[Cl][Os+]1[N]2C=CC=c3ccc4c(c32)[N]1C=CC=4
IC50 (Hs 683; cell growth or viability, MTT): 77.9 µM

CC(=O)N[C@H](C(=O)N[C@@H](CCCNC(=N)N)C(=O)N[C@@H](CCCCN)C(=O)N[C@@H](CCCNC(=N)N)C(=O)N[C@H](C(=O)N[C@@H](CC(C)C)C(=O)N[C@@H](CCCNC(=N)N)C(=O)N[C@@]1(C)CCCC=CCCC[C@@](C)(C(=O)N[C@@H](CCCNC(=N)N)C(=O)N[C@@H](CCC(=O)O)C(=O)N[C@@H](CC(C)C)C(=O)N[C@H](C(=O)N[C@@H](CCC(=O)O)C(N)=O)C(C)C)NC(=O)[C@H](CCC(N)=O)NC(=O)[C@H](CC(C)C)NC(=O)[C@H](CC(C)C)NC1=O)[C@@H](C)O)C(C)C
IC50 (H3255 (EGFR L858R); cell viability; 18 h, serum-free): 2.05 µM

CCOc1ccc(Br)cc1-n1c(CN2CCNCC2)nc2ccccc2c1=O
IC50 (PANC-1; cell growth or viability, ATP luminescence; 72 h): 0.7 µM

C#CCCCC[C@H](C)C[C@@H](C)C(=O)N[C@@H](C)C(=O)N1CCC[C@H]1C(=O)N[C@H](C(=O)N[C@H](C(=O)N[C@H](C(=O)N[C@@H](Cc1ccccc1)C(=O)N1CCC[C@H]1C(=O)N1CCC[C@H]1C(C)=O)C(C)C)C(C)C)C(C)C
IC50 (DU-145; cell growth or viability, SRB): 1.18 µM and 1.66 µM and 1.32 µM

CCCCCCCC(=O)NCCCC[C@H](NC(=O)CCCCCCC)C(=O)N[C@@H](CCCCNC(=O)CCCCCCC)C(=O)NCC(=O)NCC(=O)NCC(=O)N[C@@H](CS)C(=O)N[C@@H](CCCNC(=N)N)C(=O)N[C@@H](CCCCN)C(=O)N1CCC[C@H]1C(=O)N[C@@H](CS)C(=O)N[C@@H](CCCNC(=N)N)C(=O)N[C@@H](CCCCN)C(=O)N1CCC[C@H]1C(=O)N[C@@H](CS)C(=O)N[C@@H](CCCNC(=N)N)C(=O)N[C@@H](CCCCN)C(=O)N1CCC[C@H]1C(N)=O
IC50 (human red blood cells; haemolysis; pH 7.4, 37 °C; relative to: Triton X-100): 314 µM

CCOc1ccccc1-n1c(CN2CCNCC2)nc2ccccc2c1=O
IC50 (CAL-27; cell growth or viability; 72 h): 0.192 µM

C[C@H]1[C@H](OC(=O)CCC(=O)OCCC2CCN(CC(=O)Nc3ccc([N+](=O)[O-])c(C(F)(F)F)c3)CC2)O[C@@H]2O[C@@]3(C)CC[C@H]4[C@H](C)CC[C@@H]1[C@@]24OO3
IC50 (PC-3 (p53 null); cell growth, CCK-8; 48 h): > 50 µM
